Measurements gathered from unrelated publications.
Each numbered part is a random draw from the data of one study; scales do not carry over between parts.

Series 1 — technique: protein binding microarray; form: double-stranded DNA, one strand shown; sample: in vitro; tested at: not given; baseline: not given; direction: higher = stronger binding
Target: Histone acetyltransferase KAT6A, winged helix 2, GST fusion (KAT6A, Homo sapiens, UniProt Q92794, residues 85-181)
Setting: 8-mer, flanks averaged, mean of 2 arrays, mostly near background
Target sequence (chain): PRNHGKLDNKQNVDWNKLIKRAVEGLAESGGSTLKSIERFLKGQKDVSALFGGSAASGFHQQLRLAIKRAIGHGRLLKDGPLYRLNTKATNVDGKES
Oligonucleotide	E-score
ATATTACC	0.0536
ATTCAAAT	0.0261
CGCCTGTC	0.055
AACGTCTA	-0.198
CGTATAAG	-0.151
TCTAATCA	0.104
ATTCCCCC	0.00579
GAACATAA	-0.0689
CGATGAAA	0.00585
GATAGCCA	-0.0944
CGGCCGAA	0.227
GCGGACCC	0.162
AACCTTAG	-0.104
CTTCCGAC	0.114
ACGTAAGG	-0.277
ATTTAAGC	0.0611
ACCTTATA	0.0226
CAAAACAC	0.0523
GCTAGGAC	-0.118
AGGTGGAC	-0.0439
GGCGCTAA	-0.00909
ATAGACCC	-0.0941
CTACCGGA	-0.0926
CCCCCCGA	-0.0273
CCCAACGC	0.146

Series 2 — technique: RNA Bind-n-Seq; form: RNA; sample: in vitro; tested at: 200 nM; setting: whole 134-nt RNA, ends assumed; added: 150 mM KCl; baseline: input library; direction: higher = stronger binding
Target: Fragile X messenger ribonucleoprotein 1, C-terminal low-complexity region (Fmr1, Mus musculus, UniProt P35922)
Shared flanks, not repeated: GGGAGUUCUACAGUCCGACGAUC … UGGAAUUCUCGGGUGUCAAGG
Oligonucleotide	log2 enrichment
GCAGGAAGUAAAAACAAAUGGAAAUGCUUCGGAUAGUGGCAAAAGUGGGGGUUGCUAAGGAAAGGGUGGGAUGGGAGUGGGUAAAGAGUU	0.363
UCCUGUGCUACACAUCGUAUGUACCGAAUCGGGGUGGGGAAAAAAAGGGGUUUUUGGGGAAAGUAUUAUGUUACGCCGUUCGGAUCUGCA	0.843
AAGUCCUGUGCUACACAUCGUAUGUACCGAAUCGGGGUUUGGGGUUUGGGGUUUGGAAAGUAUUAUGUUACGCCGUUCGGAUCUGCACUU	-0.0628
UGGCCCUGGUGGCAUGCGGGGAGGAAGAGGUGGCCUCAUGGAUCGUGGUGGUCCCGGUGGAAUGUUCAGAGGUGGCCGGGGUGGAGACAG	0.0931
UCAAGUCCUGUGCUACACAUCGUAUGUACCGAAUCGGGUUUGGUUUGGGGUUUGGAAAGUAUUAUGUUACGCCGUUCGGAUCUGCACUUC	-0.314
GCAGGAAGUAAAAACAAAUGGAAAUGCUUCGGAUAGUGGCAGGGGUGGGGGUUGCUAAGGAAAGGGUGGGAUGGGAGUGGGUAAAGAGAU	0.433
UAACUUUAGAGGAGGAUCUGAUGGAUAUGGCAGUGGACGUGGAUUUGGGGAUGGCUAUAAUGGGUAUGGAGGAGGACCUGGCGGUGGCAA	0.0823
GCAGGAAGUAAAAACAAAUGGAAAUGCUCCGGAUAGUGGCAGGGGUGGGGGUUGCUAAGGAAAGGGUGGGAUGGGAGUGGGUAAAGAGUU	0.308
CAAGUCCUGUGCUACACAUCGUAUGUACCGAAUCGGGAAAGGGGAAAGGAAAGGGAAAGUAUUAUGUUACGCCGUUCGGAUCUGCACUUC	-0.142
UGGGAGGUGGCUUUUGUUUAUUUUUUUAGCUCAUUUCCAGGGGUGGGAAUUUUUUUUUAAUAUGUGUCAUGAAUAAAGUUGUUUUUGAAA	0.889
UCAAGUCCUGUGCUACACAUCGUAUGUACCGAAUCGGAAAAAGGAAAAAGGAGGAAAGUAUUAUGUUACGCCGUUCGGAUCUGCACUUCC	-0.469
AAGUCCUGUGCUACACAUCGUAUGUACCGAAUCGGAAAAAAAGGAAAAAGGAAAGGAAAGUAUUAUGUUACGCCGUUCGGAUCUGCACUU	-1.03
GCAGGAAGUAAAAACAAAUGGAAAUGCUUCGGAUAGUGGCAGGGGUGGGGGUUGCUAAGGAAAGGGUGGGAUGGGAGUGGGUAAAGAGUC	-0.305
GCAGAAAGUAAAAACAAAUGGAAAUGCUUCGGAUAGUGGCAGGGGUGGGGGUUGCUAAGGAAAGGGUGGGAUGGGAGUGGGUAAAGAGUU	0.664

Series 3 — technique: protein-binding microarray; form: double-stranded DNA, one strand shown; sample: in vitro; tested at: 250 nM; setting: 60-bp whole probe; added: salmon DNA 0.4 mg/ml; baseline: random background probes; direction: higher = stronger binding; shared flanks, not repeated: GCCTAGCAC … GTCTTGATTCGCTTGACGCTGCTG
Target: Interferon regulatory factor 5, full length, phosphomimetic (IRF5, Homo sapiens, UniProt Q13568-2, residues 1-514, K96S/S451D/S453D/S456D/S462D)
Oligonucleotide	log fluorescence [z-score]
TCATTTTCCTAATTGAAACTGTGCTAG	1.29
GACGGTCTCCTGTTCCTGACGTGCTAG	-0.0507
TGAGTTTTCCTTCATGTGCCGTGCTAG	0.559
TGAGGTTTCGGGACTGGGTTAGTGCTA	3.64
TTTGATTTCAGTTCCGATTAGTGCTAG	4.04
GTAGGACTGCTTTTCCTTTAGTGCTAG	-0.0134
TTAGGACTGCAACTGCTTTAGTGCTAG	-0.283
GACGATTGCAGTATCGAGACGTGCTAG	1.57
TATATTATATATTTATGTATGTGCTAG	0.92
GACGGACCGGGGTTTCGGGACGTGCTA	1.17
GATTGGCTGACTTTGGAGATGTGCTAG	-0.279
GACGCTCTCGGTATCGGGACGTGCTAG	1.2
GACGGTTTCGGGTATGGGGACGTGCTA	7.49
TTAGGTTCCCTTTACCTTTAGTGCTAG	0.435
ACTCGTGACCCTCTCAAAGGGTGCTAG	-0.528
GACAGTCTCCTTTTCCTGACGTGCTAG	0.246
GACGGTTTCCTTTCCCTGCCGTGCTAG	1.5
TCGGTGATCAGTCTGATGGTGTGCTAG	0.0815
TTAGGTATCCTTTTCCTGTAGTGCTAG	0.432
GACGGACTGGGACCGGGGACGTGCTAG	-0.798
GGCGGTTTCGGGTATCGGGACGTGCTA	8.18
TTAGGTTTCCTTTACCTTTAGTGCTAG	0.947
TTAGGTCTCGGACTGGGATAGTGCTAG	-0.255
TGAGATTTCGGGTATCGATTAGTGCTA	6.66
GACGAACTGGGGTATCGAAACGTGCTA	1.7

Series 4 — technique: universal PBM; form: double-stranded DNA, one strand shown; sample: in vitro; tested at: 600 nM; direction: higher = stronger binding
Target: Sal-like protein 4, full length isoform A (SALL4, Homo sapiens, UniProt Q9UJQ4, residues 1-1053)
Chain of UniProt Q9UJQ4 (whole entry, looked up): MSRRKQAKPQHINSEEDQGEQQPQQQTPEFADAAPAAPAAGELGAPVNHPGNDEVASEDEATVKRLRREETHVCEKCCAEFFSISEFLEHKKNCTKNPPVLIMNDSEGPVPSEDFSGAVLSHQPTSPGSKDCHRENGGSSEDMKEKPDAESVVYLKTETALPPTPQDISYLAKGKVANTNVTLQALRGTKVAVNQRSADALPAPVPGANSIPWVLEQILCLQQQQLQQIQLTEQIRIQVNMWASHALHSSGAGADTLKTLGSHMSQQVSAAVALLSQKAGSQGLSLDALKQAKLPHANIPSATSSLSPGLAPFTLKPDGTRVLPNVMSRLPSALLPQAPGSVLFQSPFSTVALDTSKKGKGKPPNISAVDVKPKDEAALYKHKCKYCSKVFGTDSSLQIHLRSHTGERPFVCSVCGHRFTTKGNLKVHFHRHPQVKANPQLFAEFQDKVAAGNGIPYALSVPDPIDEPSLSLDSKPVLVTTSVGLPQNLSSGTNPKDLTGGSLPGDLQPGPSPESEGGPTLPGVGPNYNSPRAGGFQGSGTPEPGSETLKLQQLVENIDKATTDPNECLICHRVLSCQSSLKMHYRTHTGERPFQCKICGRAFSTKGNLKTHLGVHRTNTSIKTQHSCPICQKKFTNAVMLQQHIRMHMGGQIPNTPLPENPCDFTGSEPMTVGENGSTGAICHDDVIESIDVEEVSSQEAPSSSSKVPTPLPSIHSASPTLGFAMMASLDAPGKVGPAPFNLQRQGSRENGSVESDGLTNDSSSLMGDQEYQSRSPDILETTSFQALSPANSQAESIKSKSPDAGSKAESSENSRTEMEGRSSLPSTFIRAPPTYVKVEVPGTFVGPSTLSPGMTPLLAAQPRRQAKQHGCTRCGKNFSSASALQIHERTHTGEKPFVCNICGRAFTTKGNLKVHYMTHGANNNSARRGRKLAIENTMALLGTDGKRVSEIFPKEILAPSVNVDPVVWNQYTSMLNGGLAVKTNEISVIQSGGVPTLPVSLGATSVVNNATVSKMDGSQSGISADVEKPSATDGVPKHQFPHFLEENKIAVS
Setting: 8-mer, flanks averaged, mean of replicates
Oligonucleotide	E-score
GGTGTAGA	-0.161
GGATTGGA	-0.0163
CCATACAA	0.152
AGATGCTC	-0.162
CACATGTC	-0.0984
ATAAGCCA	0.178
TTGTACAA	0.289
CGAGTCCG	-0.0823
CTCAAGGC	-0.177
ACACGCGA	-0.0257
ATGGGTCA	-0.0482
GCAATAGA	0.109
CCACAACA	0.00113
AGGGCATC	-0.322
AAACCGCG	-0.159
GATGCTCC	-0.224
AACGGTCC	-0.218
ACCATGTG	-0.0226
GGTGAAGA	-0.15
GAAGGGAC	-0.145
GCCTGTCC	-0.269
CGGTCTTA	-0.12
GGGCGGAC	-0.345
GCTTAGCC	-0.275
AACTCATT	0.0475

Series 5 — technique: RNA Bind-n-Seq; form: RNA; sample: in vitro; tested at: 365 nM; baseline: no-protein control; direction: higher = stronger binding
Target: RNA binding protein fox-1 homolog 2, RRM domain, GST-SBP tag (RBFOX2, Homo sapiens, UniProt O43251-10, residues 100-194)
Setting: natural RNA segment, single round, ends assumed
Shared flanks, not repeated: GGGAGUUCUACAGUCCGACGAUC … UGGAAUUCUCGGGUGCCAA
Target sequence (chain): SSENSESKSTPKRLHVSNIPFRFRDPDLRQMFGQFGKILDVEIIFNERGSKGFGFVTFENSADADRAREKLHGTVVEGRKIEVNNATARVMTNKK
Oligonucleotide	RBNS enrichment (R)
GAAAGUGGCCUAGUAACUCUGAGUAUUUUAAAGAAUGCUUUAUCAUUUUUUAAAGAUGUCAAGAAACUAGCUAUAGCUGCCUAAGAAUUGAAUCUAUUGUAUUUCCCUCU	0.219
CCCUCUCAGGGAUGAGACAUGGACAGGUCUCUGGAACGUUAUGGGUAAUGAGCCCCAGCAACUGUCCUCAGCCCCUCUUCCCCUCAUUUGUUCCUUCUGUCCUUCCAACA	0.277
CCCAAACCCCUUCCCACGACAAAAACAAGACUGCCUCCCUCUCUUCCGGGAGCUGGUGACAGCCUUGGGCCUUUCAGUCCCAAAGCGGCCGAUGGGAGUCUCCCUCCGAC	0.297
UGUGCGAUGGCAGAGCAGCAUCCAAGCAGAGAUCAGAUGUCCUCUUCAGUCUGUGGGCGGGCGAUUGUCAGUGGGAUUGGUUAAAAAGCUCUUACCAGAGCUGGCUGGCC	1.29
AAGACAUCCUUUCUAAAGAUUCAAGUGGACUUGACUAAGCUGAGGGUCCACGAAAUAGAAUAUGACAUGUGAGCUGUUUUUGGAAAACGAAGAUGGAGAGAGCACUUCCC	0.25
UAUUCCAAACAAAAUAACCGUAGAAGAAUACAACUGAUAAAAAUAAAAUAACCCAUUUGUUCACAGUUCUAAAACUAACUGGUUAAUAGGCUAAUGAUGUUCACUCAUUC	0.33
AAGGUGGUCUCUUUUGCUUGCUUCUUUUAAAUGUUUUCCUUUGUAUUUGAUGACAAAUGUUUGUAUCCUUACAAAAGACCUUGUAUGUUUACGAAUUCUGCCAUGCAGCG	1.44
UCCACUCACAUUGCAGAACAAUUCCGAAAAUGGCAAACUACUACUACUACUGUUCAGUUUUUUAAAAGUUUUGAAAUGCUGCACUUACAUUUAAAAAAACAACAACAACA	1.23
AGCGCCCCUGCUGCACCGCGAAUCCCUCGCCGACUCCUGGUCCCAUCCGCCUCCUCUGCAGCAGCCAGUGUGCUGCUCGAGGGUGUUGGGGGGUCCACCCGCCUCCAUCU	0.182
CAAGAGGGGACCACAUAGUCUCUGUUGGCAUUUCUUUGUGGUGUCUGUCUGGACAUGCUUCCUAAAAACAGACCAUUUUCCUUAACUUGCAUCAGUUUUGGUCUGCCUUA	3.59
UUUAUGUUUCCAUGCCAGAGUUUGUGUGGGCGGGCGCAUGUGCACCACAGAGUGCACUCGAGGGGACUUUCAGUCACAGGAUUUCAUAAUUGUCAUUGUCACACUUUCAA	6.98
CUUAAGUGGAAGGAAAAGAGUGCUGAGAAAUGGCUCUGUAUAAUCUAUGGCUAUCCGAAUUCUCUGAAAAAAUAAUAAAAGUCCCCUCUAUUAUAUGAGCCUGUACAGAA	1.19

For quick reference, copied from above (series 2):
Oligonucleotide	log2 enrichment
UGGCCCUGGUGGCAUGCGGGGAGGAAGAGGUGGCCUCAUGGAUCGUGGUGGUCCCGGUGGAAUGUUCAGAGGUGGCCGGGGUGGAGACAG	0.0931
UCAAGUCCUGUGCUACACAUCGUAUGUACCGAAUCGGGUUUGGUUUGGGGUUUGGAAAGUAUUAUGUUACGCCGUUCGGAUCUGCACUUC	-0.314
GCAGGAAGUAAAAACAAAUGGAAAUGCUUCGGAUAGUGGCAGGGGUGGGGGUUGCUAAGGAAAGGGUGGGAUGGGAGUGGGUAAAGAGAU	0.433
UAACUUUAGAGGAGGAUCUGAUGGAUAUGGCAGUGGACGUGGAUUUGGGGAUGGCUAUAAUGGGUAUGGAGGAGGACCUGGCGGUGGCAA	0.0823
GCAGGAAGUAAAAACAAAUGGAAAUGCUCCGGAUAGUGGCAGGGGUGGGGGUUGCUAAGGAAAGGGUGGGAUGGGAGUGGGUAAAGAGUU	0.308
CAAGUCCUGUGCUACACAUCGUAUGUACCGAAUCGGGAAAGGGGAAAGGAAAGGGAAAGUAUUAUGUUACGCCGUUCGGAUCUGCACUUC	-0.142
UGGGAGGUGGCUUUUGUUUAUUUUUUUAGCUCAUUUCCAGGGGUGGGAAUUUUUUUUUAAUAUGUGUCAUGAAUAAAGUUGUUUUUGAAA	0.889
UCAAGUCCUGUGCUACACAUCGUAUGUACCGAAUCGGAAAAAGGAAAAAGGAGGAAAGUAUUAUGUUACGCCGUUCGGAUCUGCACUUCC	-0.469
AAGUCCUGUGCUACACAUCGUAUGUACCGAAUCGGAAAAAAAGGAAAAAGGAAAGGAAAGUAUUAUGUUACGCCGUUCGGAUCUGCACUU	-1.03
GCAGGAAGUAAAAACAAAUGGAAAUGCUUCGGAUAGUGGCAGGGGUGGGGGUUGCUAAGGAAAGGGUGGGAUGGGAGUGGGUAAAGAGUC	-0.305
